Experimental data pooled from the literature.
Every numbered part comes from another study and shows a few of its results, in no order. Changes are numbered by the printed parent chain.

Study 1
Target: CCNB2, cyclin fold, Cln2 fusion (human)
Technique: yeast growth competition, sequencing
Sample: yeast
Setting: weak parent motif
Baseline: not given
Reading: higher = stronger binding
Endpoint: normalised enrichment score
Starting sequence: RBL2 docking peptide (human); STTRRRLFVENDS
S13E: 0.891
T2C: 0.154
S1V: 0.245
T3F: 0.482
R6I: 0.0221
L7Y: -0.0799
E10R: 0.0477
N11P: 0.596
R5F: -0.26
V9C: 0.625
T3C: 0.621
L7H: 0.308
R4S: -0.393
N11K: 0.75

Study 2
Target: ABI1, truncated, D143A, DHFR fusion (Arabidopsis thaliana)
Technique: DHFR PCA, deep sequencing
Sample: yeast
Setting: methotrexate growth selection, single substitutions
Together with: (+)-ABA 17 µM
Baseline: wild-type fitted maximum
Reading: higher = stronger binding
Endpoint: relative binding score
Starting sequence: PYL1, truncated, DHFR fusion (Arabidopsis thaliana); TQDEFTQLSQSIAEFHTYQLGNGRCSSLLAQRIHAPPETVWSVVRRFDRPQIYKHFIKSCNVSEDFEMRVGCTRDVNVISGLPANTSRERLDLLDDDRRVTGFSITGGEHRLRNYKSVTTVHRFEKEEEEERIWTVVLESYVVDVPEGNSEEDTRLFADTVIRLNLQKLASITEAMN
Q31Y: 30.4%
P50T: -4.27%
A13D: 80.9%
M68Y: 60.9%
V62E: -22.5%
F56A: -3.02%
V145I: 92.1%

Study 3
Target: Ras GTPase-activating protein-binding protein 1, full length (G3BP1, Homo sapiens, UniProt Q13283)
Sequence of UniProt Q13283 (whole entry, looked up): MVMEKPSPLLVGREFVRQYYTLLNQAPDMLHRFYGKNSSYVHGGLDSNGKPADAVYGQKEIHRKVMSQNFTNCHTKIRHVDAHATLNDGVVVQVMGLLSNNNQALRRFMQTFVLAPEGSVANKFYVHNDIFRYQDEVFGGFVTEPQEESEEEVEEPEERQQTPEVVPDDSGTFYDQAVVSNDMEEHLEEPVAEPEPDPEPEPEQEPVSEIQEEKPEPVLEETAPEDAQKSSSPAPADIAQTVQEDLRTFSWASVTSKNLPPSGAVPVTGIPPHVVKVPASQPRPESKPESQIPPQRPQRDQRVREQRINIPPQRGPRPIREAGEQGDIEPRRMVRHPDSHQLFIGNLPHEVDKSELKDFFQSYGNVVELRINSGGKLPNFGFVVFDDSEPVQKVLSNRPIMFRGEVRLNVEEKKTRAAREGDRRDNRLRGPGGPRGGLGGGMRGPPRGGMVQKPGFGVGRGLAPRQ
Technique: RNA Bind-n-Seq
Form: RNA
Sample: in vitro
Tested at: 200 nM
Setting: whole 134-nt RNA, ends assumed
Together with: 150 mM KCl
Baseline: input library
Reading: higher = stronger binding
Endpoint: log2 enrichment
All sequences stand within: GGGAGUUCUACAGUCCGACGAUC … UGGAAUUCUCGGGUGUCAAGG
GUCCUGUGCUACACAUCGUAUGUACCGAAUCGGGGUUUGGGGUUUGGGGAAAAAGGGGAAAGUAUUAUGUUACGCCGUUCGGAUCUGCAC: 0.436
UUCAUUCUUACUUUGAAUCUAGGAUUUUAUGGAAGACCUUGGGUUAUGGAACAGAGAAAAGAACUCUUUAGAAGGUAAAUCUUCAUUAUA: -2.27
UGGCUGCAGGCGCACCCCGGCAGGAUUUUGCCUCCGCUGUCGCCCCCGCAGCACCGCUACUCGGAGGGCGAGCGGACCUCCCUGGAGAAG: -0.593
GUCCUGUGCUACACAUCGUAUGUACCGAAUCGGGGAGGGGUUUGGGGAAAAAAAGGGGAAAGUAUUAUGUUACGCCGUUCGGAUCUGCAC: 0.3
UUCCCCACUUCCUUCCCUCCAGUCCCCACUCACUCACAUGCACACACUAACCUUGGAGCCGAUGGGAUUGAGUGACUGGCACUUGGGACC: 1.26
ACCAUGCAGGUGGGCAUCUUUGGGAAGUGGGGCAAGGGGGGGAUAGGGAGGGGGGUAACACUUAGGGAACAGGUGGUCCCAGGUCGUUUC: 1.3
CCUGUGCUACACAUCGUAUGUACCGAAUCGGGGUUUUUUUGGGGUUUUUUUGGGGUGGGGAAAGUAUUAUGUUACGCCGUUCGGAUCUGC: 0.164
UUUCUAGGCAAGAGGAGGAACGACGUAGAAGAGAGGAAGAGAUGAUGAUUCGUCAACGUGAGAUGGAAGAACAAAUGAGGCGCCAAAGAG: 1.22
UCCCCAGGGCCUGGCCUACUCAAUCUCUCCCACCUCAUCCUCUGGCAUGGACGCAGUCAGGGAGUCUGCUCCAAGCAGACACUGGUGGUC: -0.976

Mixed results
PhoQ, residues 284 288 289 292 302 303 NLGVHL  fold induction (PhoP, residues 12 14 15 18 19 LWHCS (Escherichia coli, UniProt P23836); Sort-seq, measured: YFP reporter; E. coli; PhoQ-PhoP variant library, together with: 10 µM Mg2+; baseline: high Mg2+ state, higher = stronger signaling): 3.02

For quick reference, copied from above (study 1):
E10R: 0.0477
N11P: 0.596
R5F: -0.26
V9C: 0.625
